# Results from different studies.
# Compare with care: the assays were run in different laboratories. ± gives the spread as reported.
# CNR2: Cannabinoid receptor 2 (CNR2, Homo sapiens, UniProt P34972)
# UniProt P34972, sequence (whole entry, looked up): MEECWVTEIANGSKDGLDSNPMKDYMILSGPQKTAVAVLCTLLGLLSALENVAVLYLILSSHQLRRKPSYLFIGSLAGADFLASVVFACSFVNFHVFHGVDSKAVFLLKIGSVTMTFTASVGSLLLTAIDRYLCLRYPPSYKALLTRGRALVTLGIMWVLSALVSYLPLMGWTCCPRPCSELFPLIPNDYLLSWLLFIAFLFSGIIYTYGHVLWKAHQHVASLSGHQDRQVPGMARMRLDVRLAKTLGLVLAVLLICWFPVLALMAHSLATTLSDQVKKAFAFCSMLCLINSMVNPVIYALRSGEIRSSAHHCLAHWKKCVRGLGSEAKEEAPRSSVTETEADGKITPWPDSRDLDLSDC
# gyrB with GyrA: DNA gyrase subunit B, with GyrA (gyrB, Mycobacterium tuberculosis, UniProt P9WG45)
# UniProt P9WG45, sequence (whole entry, looked up): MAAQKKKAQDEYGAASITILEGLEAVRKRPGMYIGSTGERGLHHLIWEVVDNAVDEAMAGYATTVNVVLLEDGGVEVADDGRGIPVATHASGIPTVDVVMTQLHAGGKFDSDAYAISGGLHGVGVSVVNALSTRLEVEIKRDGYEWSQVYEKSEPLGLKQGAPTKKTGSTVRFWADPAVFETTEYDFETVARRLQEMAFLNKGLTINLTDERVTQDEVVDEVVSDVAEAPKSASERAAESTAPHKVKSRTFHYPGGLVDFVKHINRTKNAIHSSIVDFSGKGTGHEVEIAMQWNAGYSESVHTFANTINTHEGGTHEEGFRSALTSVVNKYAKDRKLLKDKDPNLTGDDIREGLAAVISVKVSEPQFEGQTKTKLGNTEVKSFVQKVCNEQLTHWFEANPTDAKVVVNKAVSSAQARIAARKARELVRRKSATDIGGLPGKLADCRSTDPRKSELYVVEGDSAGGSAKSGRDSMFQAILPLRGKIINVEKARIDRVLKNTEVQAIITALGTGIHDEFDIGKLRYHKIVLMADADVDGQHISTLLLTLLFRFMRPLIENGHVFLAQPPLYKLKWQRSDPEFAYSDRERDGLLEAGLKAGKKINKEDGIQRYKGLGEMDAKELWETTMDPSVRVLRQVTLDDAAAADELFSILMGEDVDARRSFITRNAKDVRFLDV
# coaD: Phosphopantetheine adenylyltransferase (coaD, Mycobacterium tuberculosis, UniProt P9WPA5)
# UniProt P9WPA5, sequence (whole entry, looked up): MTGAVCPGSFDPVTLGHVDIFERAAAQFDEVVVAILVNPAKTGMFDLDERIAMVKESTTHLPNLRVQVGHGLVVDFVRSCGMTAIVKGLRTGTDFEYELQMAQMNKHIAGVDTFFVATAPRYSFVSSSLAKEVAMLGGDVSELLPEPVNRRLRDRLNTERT
# UniProt P47870, sequence (whole entry, looked up): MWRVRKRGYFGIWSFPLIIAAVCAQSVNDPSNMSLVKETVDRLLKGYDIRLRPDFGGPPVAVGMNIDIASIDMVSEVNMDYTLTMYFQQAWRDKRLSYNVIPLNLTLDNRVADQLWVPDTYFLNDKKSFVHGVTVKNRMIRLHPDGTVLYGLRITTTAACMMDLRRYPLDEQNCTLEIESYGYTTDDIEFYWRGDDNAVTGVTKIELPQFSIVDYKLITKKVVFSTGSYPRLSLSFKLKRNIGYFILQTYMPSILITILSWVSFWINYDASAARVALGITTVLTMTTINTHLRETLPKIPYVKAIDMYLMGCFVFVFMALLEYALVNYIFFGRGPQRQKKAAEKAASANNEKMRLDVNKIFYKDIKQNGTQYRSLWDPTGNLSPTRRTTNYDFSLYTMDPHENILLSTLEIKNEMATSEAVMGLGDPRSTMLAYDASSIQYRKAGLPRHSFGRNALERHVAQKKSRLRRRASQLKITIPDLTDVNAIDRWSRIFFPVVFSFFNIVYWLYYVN
# UniProt Q99571, sequence (whole entry, looked up): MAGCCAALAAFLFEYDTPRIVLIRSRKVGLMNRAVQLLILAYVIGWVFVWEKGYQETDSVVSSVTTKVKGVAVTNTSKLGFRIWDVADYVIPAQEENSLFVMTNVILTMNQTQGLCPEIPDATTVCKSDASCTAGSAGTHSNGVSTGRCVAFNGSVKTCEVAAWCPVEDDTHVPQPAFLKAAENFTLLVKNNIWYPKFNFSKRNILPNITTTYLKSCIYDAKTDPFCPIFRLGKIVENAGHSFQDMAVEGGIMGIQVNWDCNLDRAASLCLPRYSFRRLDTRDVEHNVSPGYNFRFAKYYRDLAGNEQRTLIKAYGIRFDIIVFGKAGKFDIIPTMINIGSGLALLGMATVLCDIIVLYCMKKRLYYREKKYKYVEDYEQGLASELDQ
# UniProt P9WNE1, sequence (whole entry, looked up): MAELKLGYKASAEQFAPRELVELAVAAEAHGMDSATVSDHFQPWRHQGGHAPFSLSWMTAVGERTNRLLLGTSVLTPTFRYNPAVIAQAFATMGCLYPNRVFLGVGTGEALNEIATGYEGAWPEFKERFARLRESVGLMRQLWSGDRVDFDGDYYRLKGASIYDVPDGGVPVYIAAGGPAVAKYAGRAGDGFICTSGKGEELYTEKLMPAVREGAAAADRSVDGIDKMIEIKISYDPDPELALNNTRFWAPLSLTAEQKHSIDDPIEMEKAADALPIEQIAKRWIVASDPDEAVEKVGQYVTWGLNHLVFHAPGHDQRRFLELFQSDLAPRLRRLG
# UniProt P9WIY3, sequence (whole entry, looked up): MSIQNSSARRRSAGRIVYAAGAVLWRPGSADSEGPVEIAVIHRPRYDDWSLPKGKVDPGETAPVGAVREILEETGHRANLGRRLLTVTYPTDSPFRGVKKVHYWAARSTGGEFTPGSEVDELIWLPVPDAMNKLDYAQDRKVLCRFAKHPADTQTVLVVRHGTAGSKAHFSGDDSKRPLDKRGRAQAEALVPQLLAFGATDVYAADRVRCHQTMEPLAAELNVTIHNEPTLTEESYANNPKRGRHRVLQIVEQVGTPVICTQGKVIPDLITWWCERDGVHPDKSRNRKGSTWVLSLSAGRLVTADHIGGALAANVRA
# UniProt P35372, sequence (whole entry, looked up): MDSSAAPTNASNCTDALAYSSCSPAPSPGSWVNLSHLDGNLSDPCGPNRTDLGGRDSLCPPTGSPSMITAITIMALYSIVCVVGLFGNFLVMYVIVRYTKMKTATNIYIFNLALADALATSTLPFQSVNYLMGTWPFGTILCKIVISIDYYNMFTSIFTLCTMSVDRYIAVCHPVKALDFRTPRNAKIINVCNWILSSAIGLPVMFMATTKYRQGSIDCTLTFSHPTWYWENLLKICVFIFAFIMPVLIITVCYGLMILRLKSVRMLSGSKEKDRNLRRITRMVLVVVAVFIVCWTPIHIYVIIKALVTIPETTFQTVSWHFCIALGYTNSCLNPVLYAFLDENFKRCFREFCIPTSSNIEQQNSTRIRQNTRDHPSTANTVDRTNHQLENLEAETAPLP
# UniProt P14867, sequence (whole entry, looked up): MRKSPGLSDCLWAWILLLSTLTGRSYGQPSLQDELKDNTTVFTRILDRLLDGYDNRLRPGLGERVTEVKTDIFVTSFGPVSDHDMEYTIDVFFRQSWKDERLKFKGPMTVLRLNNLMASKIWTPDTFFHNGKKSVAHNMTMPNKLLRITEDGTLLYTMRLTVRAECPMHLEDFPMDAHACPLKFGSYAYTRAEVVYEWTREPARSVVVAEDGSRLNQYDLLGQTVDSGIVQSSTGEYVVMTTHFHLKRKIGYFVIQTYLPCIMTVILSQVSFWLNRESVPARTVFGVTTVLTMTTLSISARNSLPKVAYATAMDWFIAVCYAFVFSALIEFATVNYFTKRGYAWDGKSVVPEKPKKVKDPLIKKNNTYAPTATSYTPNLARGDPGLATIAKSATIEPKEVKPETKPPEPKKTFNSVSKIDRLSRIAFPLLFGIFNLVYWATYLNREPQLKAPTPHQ
Compound,tested on,assay,test system,conditions,measurement,result
CCCCCn1cc(C(=O)C2C(C)(C)C2(C)C)c2ccccc21,CNR2,,,,Ki,0.0045 µM
CC(C)(C)OC(=O)N1CCN(C(=O)CCc2c(C(=O)N3CCN(C(=O)OC(C)(C)C)CC3)[nH]c3ccc(Cl)cc23)CC1,gyrB with GyrA,inhibitor,,,IC50,94 µM
O[C@H]1[C@H](O)[C@@H](O)CN2CC[C@H](O)[C@H]12,"Toxin B, glucosyltransferase domain (Clostridioides difficile, UniProt A0A9R0CDJ3)","glucosyltransferase activity, inhibitor, UDP-Glo glucosyltransferase luminescence",,together with: Rac1 and UDP-glucose,Ki,2350 µM
C[C@@]12CC[C@H](O)C[C@H]1CC[C@@H]1[C@@H]2CC[C@@]2(C)C(=O)CC[C@@H]12,"GABA-A receptor; GABA-A site (alpha1/beta2 interface) (Homo sapiens, UniProt P14867+P47870)",,,,EC50,8.34 µM
OC[C@H]1CNC[C@@H](O)[C@@H]1O,"toxin B, glucosyltransferase domain (Clostridioides difficile, UniProt A0A9R0CDJ3)",,,,Ki,0.083 ± 0.012 µM
O=C(O)c1cnn(-c2ccccc2)c1OCCCc1c[nH]c2ccccc12,coaD,"enzyme activity, inhibitor, coupled pyrophosphate release",,"together with: ATP 500 µM, 4'-phosphopantetheine 40 µM",Ki,~260 µM
O=C(CCCCCCC(=O)Nc1ccc([C@H]2O[C@@H](CSc3nc(-c4ccccc4)c(-c4ccccc4)o3)C[C@@H](c3ccc(CO)cc3)O2)cc1)NO,human coronavirus OC43,virus-induced cell killing,MRC-5,screen,maximum inhibition,4.17%
F,"8-oxo-(d)GTP phosphatase (mutT1, Mycobacterium tuberculosis, UniProt P9WIY3)",,,,IC50,340 ± 90 µM
CC[C@@H](c1cccc(O)c1)[C@@H](C)CN(C)C,"OPRM1 (Homo sapiens, UniProt P35372)",agonist,human cells,"WT receptor, no receptor depletion",EC50,0.398 µM
CC1(C)C(C(=O)c2cn(CCCCCF)c3ccccc23)C1(C)C,CNR2,,,,Ki,0.0021 µM
O=C(CCc1c(C(=O)NNc2ccccc2)[nH]c2ccc(C(F)(F)F)cc12)NNc1ccccc1,gyrB with GyrA,inhibitor,,,IC50,> 500 µM
O=C(O)c1cnn(-c2ccccc2)c1OCCc1c[nH]c2ccccc12,coaD,ITC,,"pH 8.0, 25 °C, 5% DMSO",Kd,38 ± 2 µM
O=C(CCc1c(C(=O)Nc2ccc(Cl)cc2)[nH]c2cc(C(F)(F)F)c(Cl)cc12)Nc1ccc(Cl)cc1,gyrB with GyrA,inhibitor,,,IC50,15.3 µM
O=C(O)CC(O)(CC(=O)O)C(=O)O,"fgd1 (Mycobacterium tuberculosis, UniProt P9WNE1)",inhibitor,,,Ki,0.84 ± 0.05 µM
CNCCC(Oc1ccc(C(F)(F)F)cc1)c1ccccc1 (centres unmarked),human coronavirus OC43,virus-induced cell killing,MRC-5,screen,maximum inhibition,26.5%
Cc1ccc(NC(=O)CCc2c(C(=O)Nc3ccc(C)cc3)[nH]c3ccc(C)cc23)cc1,gyrB with GyrA,inhibitor,,,IC50,59.1 µM
O=S(=O)(c1ccc(C(F)(F)F)cc1)N1CCNCC1COc1ccc2ccccc2c1 (centres unmarked),"P2X purinoceptor 4 (P2RX4, Homo sapiens, UniProt Q99571)","calcium flux, inhibitor, Ca2+ flux",human cells,,IC50,> 10 µM
